Experimental data from different studies.
Numbered parts are unrelated; each lists some results of a single study.
Chain of UniProt Q16832 (whole entry, looked up): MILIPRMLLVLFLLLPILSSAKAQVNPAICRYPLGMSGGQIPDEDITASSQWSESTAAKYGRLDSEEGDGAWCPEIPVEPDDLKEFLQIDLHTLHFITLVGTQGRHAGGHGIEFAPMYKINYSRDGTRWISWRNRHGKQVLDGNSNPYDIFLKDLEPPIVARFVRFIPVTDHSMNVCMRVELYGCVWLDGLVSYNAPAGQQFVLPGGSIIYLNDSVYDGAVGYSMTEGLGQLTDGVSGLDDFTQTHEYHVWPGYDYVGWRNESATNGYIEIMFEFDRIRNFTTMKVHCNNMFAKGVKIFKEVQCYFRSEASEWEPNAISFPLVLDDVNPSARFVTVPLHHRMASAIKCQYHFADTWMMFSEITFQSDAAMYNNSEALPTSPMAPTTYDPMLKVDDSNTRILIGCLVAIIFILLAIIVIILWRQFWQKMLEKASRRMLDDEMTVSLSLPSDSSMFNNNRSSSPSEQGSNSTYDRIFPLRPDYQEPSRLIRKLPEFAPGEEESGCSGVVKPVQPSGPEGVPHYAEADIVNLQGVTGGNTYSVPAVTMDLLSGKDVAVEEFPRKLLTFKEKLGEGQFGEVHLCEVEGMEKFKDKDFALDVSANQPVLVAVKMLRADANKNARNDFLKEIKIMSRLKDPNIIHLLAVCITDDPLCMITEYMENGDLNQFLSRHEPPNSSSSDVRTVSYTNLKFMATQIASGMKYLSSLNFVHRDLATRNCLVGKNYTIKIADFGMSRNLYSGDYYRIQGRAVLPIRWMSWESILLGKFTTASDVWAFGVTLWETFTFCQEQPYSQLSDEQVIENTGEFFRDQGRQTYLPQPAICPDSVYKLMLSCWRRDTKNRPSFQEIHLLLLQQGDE
Chain of UniProt P08588 (whole entry, looked up): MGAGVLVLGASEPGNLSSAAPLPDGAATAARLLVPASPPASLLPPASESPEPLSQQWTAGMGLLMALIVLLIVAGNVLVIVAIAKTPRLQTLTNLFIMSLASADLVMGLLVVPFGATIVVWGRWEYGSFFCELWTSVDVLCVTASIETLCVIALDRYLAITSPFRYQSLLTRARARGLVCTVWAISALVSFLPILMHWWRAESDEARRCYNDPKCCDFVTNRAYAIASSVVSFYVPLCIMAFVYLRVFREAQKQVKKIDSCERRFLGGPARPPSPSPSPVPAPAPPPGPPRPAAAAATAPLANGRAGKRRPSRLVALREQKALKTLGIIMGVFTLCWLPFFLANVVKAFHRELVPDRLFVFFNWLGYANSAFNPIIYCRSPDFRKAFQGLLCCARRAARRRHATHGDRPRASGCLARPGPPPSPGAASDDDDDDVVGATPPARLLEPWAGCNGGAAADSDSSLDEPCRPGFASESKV
Chain of UniProt Q8WXR4 (whole entry, looked up): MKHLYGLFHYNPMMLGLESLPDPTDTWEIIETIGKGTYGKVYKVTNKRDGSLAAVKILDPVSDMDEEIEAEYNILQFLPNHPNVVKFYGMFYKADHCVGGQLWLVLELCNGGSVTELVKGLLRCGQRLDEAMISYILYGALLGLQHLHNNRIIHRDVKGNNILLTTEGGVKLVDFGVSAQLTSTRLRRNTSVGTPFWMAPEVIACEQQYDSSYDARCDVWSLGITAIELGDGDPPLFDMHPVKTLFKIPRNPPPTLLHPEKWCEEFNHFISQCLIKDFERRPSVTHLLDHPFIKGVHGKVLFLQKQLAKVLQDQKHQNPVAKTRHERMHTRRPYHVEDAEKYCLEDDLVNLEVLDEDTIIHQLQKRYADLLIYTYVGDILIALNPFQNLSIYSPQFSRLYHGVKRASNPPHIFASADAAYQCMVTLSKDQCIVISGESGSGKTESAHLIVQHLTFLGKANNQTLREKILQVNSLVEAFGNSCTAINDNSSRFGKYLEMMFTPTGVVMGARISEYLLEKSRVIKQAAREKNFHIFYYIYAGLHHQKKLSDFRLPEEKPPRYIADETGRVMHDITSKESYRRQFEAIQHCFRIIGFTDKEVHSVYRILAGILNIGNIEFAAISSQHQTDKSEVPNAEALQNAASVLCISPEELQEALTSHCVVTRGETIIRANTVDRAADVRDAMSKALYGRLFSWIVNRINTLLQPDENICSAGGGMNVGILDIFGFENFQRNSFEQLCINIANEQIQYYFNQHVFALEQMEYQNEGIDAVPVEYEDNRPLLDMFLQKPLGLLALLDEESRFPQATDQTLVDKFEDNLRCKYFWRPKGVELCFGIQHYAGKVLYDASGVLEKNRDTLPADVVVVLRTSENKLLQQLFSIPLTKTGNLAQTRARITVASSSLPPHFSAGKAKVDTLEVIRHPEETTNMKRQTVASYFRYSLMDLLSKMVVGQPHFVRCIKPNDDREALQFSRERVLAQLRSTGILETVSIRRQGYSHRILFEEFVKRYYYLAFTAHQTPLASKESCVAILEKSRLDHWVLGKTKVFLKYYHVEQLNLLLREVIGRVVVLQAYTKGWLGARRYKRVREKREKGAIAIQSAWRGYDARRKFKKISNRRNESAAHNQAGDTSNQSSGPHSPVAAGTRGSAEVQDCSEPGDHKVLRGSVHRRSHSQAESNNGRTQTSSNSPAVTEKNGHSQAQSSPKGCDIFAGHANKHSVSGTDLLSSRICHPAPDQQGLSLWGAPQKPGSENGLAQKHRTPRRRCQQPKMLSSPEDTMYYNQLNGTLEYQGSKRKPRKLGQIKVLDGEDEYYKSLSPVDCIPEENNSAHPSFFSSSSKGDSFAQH
Chain of UniProt Q9H4B4 (whole entry, looked up): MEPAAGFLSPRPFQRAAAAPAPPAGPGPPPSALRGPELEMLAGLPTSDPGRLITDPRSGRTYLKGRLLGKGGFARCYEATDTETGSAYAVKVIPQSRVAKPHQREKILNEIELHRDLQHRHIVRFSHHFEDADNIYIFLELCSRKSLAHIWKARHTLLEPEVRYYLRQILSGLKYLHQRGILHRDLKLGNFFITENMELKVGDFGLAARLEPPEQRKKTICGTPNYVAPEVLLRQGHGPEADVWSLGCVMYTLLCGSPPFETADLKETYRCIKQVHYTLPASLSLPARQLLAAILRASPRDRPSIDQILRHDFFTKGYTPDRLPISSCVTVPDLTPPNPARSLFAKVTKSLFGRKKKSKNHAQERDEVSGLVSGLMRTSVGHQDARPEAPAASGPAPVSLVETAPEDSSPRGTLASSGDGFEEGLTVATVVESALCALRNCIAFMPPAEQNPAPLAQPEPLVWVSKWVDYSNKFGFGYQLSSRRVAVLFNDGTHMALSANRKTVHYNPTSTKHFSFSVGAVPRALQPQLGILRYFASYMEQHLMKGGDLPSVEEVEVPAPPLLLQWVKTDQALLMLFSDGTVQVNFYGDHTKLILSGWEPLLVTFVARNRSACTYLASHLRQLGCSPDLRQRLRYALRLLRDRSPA
Chain of UniProt P49761 (whole entry, looked up): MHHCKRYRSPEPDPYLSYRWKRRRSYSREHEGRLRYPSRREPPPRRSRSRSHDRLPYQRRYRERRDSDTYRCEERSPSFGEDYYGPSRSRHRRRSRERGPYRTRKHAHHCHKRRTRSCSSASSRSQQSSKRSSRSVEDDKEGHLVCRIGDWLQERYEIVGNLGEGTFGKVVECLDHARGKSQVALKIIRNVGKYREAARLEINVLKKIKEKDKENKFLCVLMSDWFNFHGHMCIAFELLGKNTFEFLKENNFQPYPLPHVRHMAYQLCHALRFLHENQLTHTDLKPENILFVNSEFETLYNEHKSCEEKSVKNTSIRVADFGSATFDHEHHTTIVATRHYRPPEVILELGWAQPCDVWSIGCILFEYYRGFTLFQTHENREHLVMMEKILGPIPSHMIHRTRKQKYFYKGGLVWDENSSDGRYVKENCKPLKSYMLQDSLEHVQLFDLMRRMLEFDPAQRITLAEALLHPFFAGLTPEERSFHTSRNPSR

Block 1
Target: D(1B) dopamine receptor (DRD5, Homo sapiens, UniProt P21918)
Chain of UniProt P21918 (whole entry, looked up): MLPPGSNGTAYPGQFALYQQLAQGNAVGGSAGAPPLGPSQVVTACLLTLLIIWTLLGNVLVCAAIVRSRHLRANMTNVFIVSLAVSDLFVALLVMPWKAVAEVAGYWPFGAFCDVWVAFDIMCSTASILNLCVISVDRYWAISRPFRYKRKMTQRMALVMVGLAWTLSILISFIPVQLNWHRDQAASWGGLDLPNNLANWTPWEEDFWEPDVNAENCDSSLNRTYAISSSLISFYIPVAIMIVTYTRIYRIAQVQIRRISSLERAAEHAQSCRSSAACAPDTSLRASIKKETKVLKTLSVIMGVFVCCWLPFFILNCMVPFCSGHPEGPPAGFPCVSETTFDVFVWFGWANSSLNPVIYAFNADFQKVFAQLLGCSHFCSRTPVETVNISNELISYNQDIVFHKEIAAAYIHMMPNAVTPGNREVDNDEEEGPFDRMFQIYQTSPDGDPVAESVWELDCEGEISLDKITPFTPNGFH
Read-out: ligand displacement
Concentration: 10 µM
The inhibition of `c1ccc(N2CCN(Cc3nc4ccccc4[nH]3)CC2)nc1` is reported as 7.01%.
The inhibition of `CN(C)CC#Cc1ccc(OCCCc2sc(N3CCc4cccc(C(=O)Nc5nc6ccccc6s5)c4C3)nc2C(=O)O)c(F)c1` is reported as 40.8%.
With `CCC(=NO)C(C)=Cc1ccc(F)c(C)c1` the inhibition was 11.8%.
`CCOc1ccc(S(=O)(=O)Nc2ccc(Cl)cc2C#Cc2cnc(C(=O)O)cc2OC)c2ncccc12` has an inhibition of 47.7%.
`COc1ccc2cc(OCC3(C(=O)O)CN(C(=O)c4ccc(F)cc4)C3)ccc2c1` gave an inhibition of -2.51%.
With `C[C@H](c1ccnc(Nc2nc3ccc(-c4cc(N(C)C)ncn4)cc3[nH]2)c1)N1CCN(C(=O)CC(F)(F)F)CC1` the inhibition was 10.2%.
`CC(=O)Nc1ncc(CN2CCC[C@H](Cc3cc(C)nc(C)c3)C2)s1` has an inhibition of 7.69%.
`CC[C@H](CC(=O)O)n1c(=O)c2ncccc2n(Cc2cn(C)c3cc(C)cc(C)c23)c1=O` has an inhibition of 22.2%.
For `O=C(N[C@H]1CCCCC/C=C\C2C[C@@]2(C(=O)O)NC(=O)[C@@H]2C[C@@H](Oc3ccncc3)CN2C1=O)OC1CCCC1` (some centres unmarked), the inhibition was 11.3%.
With `Cc1ccc(-c2cnc([C@@]3(O)CC[C@H](C(=O)O)C(C)(C)C3)s2)cc1Nc1cccc(C(F)(F)F)n1` the inhibition was 18.6%.
`CN([C@@H]1CCc2c(CC(=O)O)c3ccccc3n2C1)S(=O)(=O)c1ccc(F)cc1` gave an inhibition of 1.94%.
The inhibition of `O=c1nc(-c2ccccn2)sc2ccccc12` is reported as 21.5%.
The inhibition of `Cc1c(NC(=O)c2cc(C(N)=O)nc3cc(F)ccc23)c(C(F)(F)F)nn1Cc1ccc(C#N)cc1` is reported as -0.829%.
`O=C(NCCCC1CCCCC1)c1ccc(CNC(=O)c2cnn(-c3ccccc3)c2C(F)(F)F)cc1` gave an inhibition of 23.2%.
With `CN(C)C(=O)c1sc2nc(N3CCC(S(C)(=O)=O)CC3)cc(C(F)(F)F)c2c1N` the inhibition was -19.7%.
The inhibition of `CN1CCN(c2ccnc(NCCc3ccccc3)n2)CC1` is reported as -20.8%.

Block 2
SMILES: O=C1NC(=O)c2c1c1c3ccccc3n3c1c1c2c2ccccc2n1[C@H]1CC[C@@H]3O1
Read-out: enzyme activity
Action: inhibitor
Concentration: 0.5 µM
Baseline: control
It gave 97% for remaining activity (CLK3 (Homo sapiens, UniProt P49761)).
It gave 19.1% for remaining activity (Myosin-IIIb (MYO3B, Homo sapiens, UniProt Q8WXR4)).
DDR2 (Homo sapiens, UniProt Q16832) — remaining activity: 80.1%.
The remaining activity was 52.5% (PLK3 (Homo sapiens, UniProt Q9H4B4)).
MINK1 (Homo sapiens, UniProt Q8N4C8) — remaining activity: 0.901%.

Block 3
Cell line: mouse MPNST tumor cells
Technique: high-content nuclear imaging
Refers to: cell number
Concentration: 10 µM
Time: 12 h
Notes: mean of 2 replicates
Baseline: plate mean
Reading: higher = more cells
For `CCn1cnc2c(Nc3cccc(Cl)c3)nc(N[C@@H]3CCCC[C@@H]3N)nc21`, the nuclei count was -4.91 z-score.
For `Cn1ncnc1COc1nn2c(-c3c(F)cccc3F)nnc2cc1C1CCC1`, the nuclei count was 0.314 z-score.
For `CC(C)(C)OC(=O)c1ncn2c1[C@@H]1CCCN1C(=O)c1c(Br)cccc1-2`, the nuclei count was 3.97 z-score.
`O=C(O)c1nn(Cc2ccc(Cl)cc2Cl)c2ccccc12` gave a nuclei count of 2.55 z-score.
`Cc1cccc(C)c1NC(=O)CN1CCCC1=O` has a nuclei count of 0.26 z-score.

Block 4
Cell line: A-375
Concentration: 100 µM
Time: 36 h
`C[C@]12CC[C@H]3[C@@H](CCC4=CC(=O)CC[C@@]43C)[C@@H]1CC[C@@H]2OC(=O)CCc1ccccc1` has a viability of 0.886%.
`COP(=O)(OC)C(O)C(Cl)(Cl)Cl` (centres unmarked) gave a viability of 73.2%.
`CC(C)NCC(O)c1ccccc1Cl` (centres unmarked) gave a viability of 114%.
For `C[C@@H]1[C@H](O)[C@@H](C)/C=C/C=C/CC/C=C/C=C/C=C/C=C/[C@H](O[C@H]2O[C@@H](C)[C@H](O)[C@@H](N)[C@H]2O)C[C@@H]2O[C@](O)(C[C@@H](O)[C@H](O)CC[C@@H](O)C[C@@H](O)C[C@@H](O)CC(=O)O[C@H]1C)C[C@H](O)[C@H]2C(=O)O`, the viability was 51%.

Single results of other studies
With `O=C(O)c1ccc2[nH]cc(CCCCN3CC=C(c4ccccc4)CC3)c2c1` the EC50 was ≥ 100 µM (ADRB1 (Homo sapiens, UniProt P08588); agonist).
`O=C1CCC(N2Cc3c(ccc4c3OCC43CCN(Cc4ccccc4)CC3)C2=O)C(=O)N1` (centres unmarked) — result for “steady-state volume of distribution”: 3.28 L/kg (Sprague Dawley rats, male, plasma; intravenous, 1.0 mg/kg).
